Measurements collected from several papers.
Every numbered part comes from another study and shows a few of its results, in no order. Substitutions count along the parent as printed.

Block 1 — technique: protein-binding microarray; molecule type: double-stranded DNA, one strand shown; sample: in vitro; tested at: not given; reading: higher = stronger binding; quantity: E-score
Target: Protein C-ets-1 (ETS1, Homo sapiens, UniProt P14921, residues 1-441, Y397A, full length assumed)
UniProt P14921, sequence (whole entry, unmodified, looked up): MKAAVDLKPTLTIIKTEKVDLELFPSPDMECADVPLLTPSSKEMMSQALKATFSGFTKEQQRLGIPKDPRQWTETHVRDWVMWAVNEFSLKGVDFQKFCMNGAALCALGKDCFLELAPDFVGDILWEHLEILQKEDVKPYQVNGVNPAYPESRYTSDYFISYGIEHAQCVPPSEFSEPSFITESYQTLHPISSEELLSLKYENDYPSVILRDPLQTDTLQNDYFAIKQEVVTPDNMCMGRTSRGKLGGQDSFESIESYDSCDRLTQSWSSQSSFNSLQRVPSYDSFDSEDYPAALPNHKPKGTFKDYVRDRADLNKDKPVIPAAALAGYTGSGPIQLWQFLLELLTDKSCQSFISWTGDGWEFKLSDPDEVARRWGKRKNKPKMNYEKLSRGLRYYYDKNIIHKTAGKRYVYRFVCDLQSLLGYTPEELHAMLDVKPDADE
Notes: k-mer, scored over probes, only values ≥0.25
TTGACAAA: 0.419
ACTGCCAT: 0.253
CTTACAAA: 0.26
ACAAGGAA: 0.257
CGTTTGCC: 0.341
ACGACGGA: 0.277
GTGTGACA: 0.297
CCGCCCCG: 0.427
AGGAGGGG: 0.307
CGATATCC: 0.276
TTGTACAA: 0.266
TTCGTCAA: 0.26
TTTACAAA: 0.282
TATTGGCA: 0.367
ACATGTCA: 0.265
CCAACAAC: 0.257
GCGACAAC: 0.263
GACAAAAA: 0.372

Block 2 — technique: protein-binding microarray; molecule type: double-stranded DNA, one strand shown; sample: in vitro; tested at: 940 nM top; notes: 60-bp whole probe; added: salmon DNA 0.4 mg/ml; reference: random background probes; reading: higher = stronger binding; quantity: fitted relative affinity; all sequences stand within: GCCTAGCAC … GTCTTGATTCGCTTGACGCTGCTG
Target: Interferon regulatory factor 5, full length, phosphomimetic (IRF5, Homo sapiens, UniProt Q13568-2, residues 1-514, S451D/S453D/S456D/S462D)
TCACATTTGGAAAATGTAACTGTGCTA: 0.0749 z-score
GACGAACTGGGGTTTGGAGACGTGCTA: 0.223 z-score
GACGGACTTGGGTTTCGGGACGTGCTA: 2.19 z-score
GAGGATTTCGGGACTGGAGACGTGCTA: -0.146 z-score
GACGATTTCCTTTTCCTGACGTGCTAG: 0.897 z-score
GACGAAGTGAGTCTCGAGACGTGCTAG: 0.957 z-score
TCACATGTGCTGTCTCAGACTGTGCTA: -0.44 z-score
TTAGGACTGATTCTCCTTTAGTGCTAG: -0.169 z-score
TTAGATATCCGGTATCGATTAGTGCTA: 4.18 z-score
TTAGATCTCCGACTGGATTAGTGCTAG: -0.257 z-score
TCCAGGGCGGTGGGTGGCCCGTGCTAG: -0.603 z-score
TAAGATCTCAGACTGGATTAGTGCTAG: -0.569 z-score
TTAGGTTTCGACACTGAGTTAGTGCTA: 7.64 z-score
GCCGGTATCGGGTATCGGGACGTGCTA: 6.26 z-score
GACGGACTGCGTATCCTGACGTGCTAG: -0.574 z-score
GACGATTTCAGACTGGAGATGTGCTAG: -0.384 z-score
TTACTTCCCAATTGTCTTTTCGTGCTA: 1.66 z-score
GACGGTATCGACTATCGGGATGTGCTA: 4.73 z-score
GACGAACTGGGGTCTCGAGACGTGCTA: 0.5 z-score
GACGACATCGGGTTTCGAGACGTGCTA: 1.6 z-score
TATTGTGTCAACTTTCTCTGCGTGCTA: 0.116 z-score
TTAGGACTGCTCTTCCTTTAGTGCTAG: -0.0939 z-score
TTAGGTCCCCTACTGCTTTAGTGCTAG: -0.0908 z-score
TTTTTTTTTTTTTTTTACTTGTGCTAG: 1.02 z-score
GACGATCTCCTTATCCTGACGTGCTAG: 0.646 z-score

Block 3 — technique: universal PBM; molecule type: double-stranded DNA, one strand shown; sample: in vitro; tested at: not given; reading: higher = stronger binding; quantity: E-score
Target: Sal-like protein 4, full length isoform B (SALL4, Homo sapiens, UniProt Q9UJQ4-2, residues 1-616)
Notes: 8-mer, flanks averaged, mean of replicates
Construct (chain): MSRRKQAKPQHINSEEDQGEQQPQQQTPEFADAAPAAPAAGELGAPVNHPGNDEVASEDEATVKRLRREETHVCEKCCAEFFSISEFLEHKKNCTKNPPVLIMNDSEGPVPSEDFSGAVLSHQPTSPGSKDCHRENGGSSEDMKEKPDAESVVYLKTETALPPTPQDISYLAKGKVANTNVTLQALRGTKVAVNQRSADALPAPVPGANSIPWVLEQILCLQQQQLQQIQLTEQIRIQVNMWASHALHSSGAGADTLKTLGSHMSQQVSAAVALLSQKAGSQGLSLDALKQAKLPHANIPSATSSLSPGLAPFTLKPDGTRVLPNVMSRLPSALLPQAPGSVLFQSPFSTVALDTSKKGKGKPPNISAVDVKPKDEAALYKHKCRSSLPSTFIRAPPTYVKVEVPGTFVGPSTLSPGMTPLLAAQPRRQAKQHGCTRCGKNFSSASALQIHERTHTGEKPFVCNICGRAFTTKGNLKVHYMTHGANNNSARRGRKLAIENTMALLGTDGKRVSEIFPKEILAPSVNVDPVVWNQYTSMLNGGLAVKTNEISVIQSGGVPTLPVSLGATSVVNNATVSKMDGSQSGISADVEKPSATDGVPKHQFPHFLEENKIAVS
ACAATAGA: 0.245
CTAGGGAC: -0.161
AGATACCT: -0.0612
AGATTTGA: 0.0667
AATGGACA: 0.206
AACCGTTC: -0.0499
CAGCGAAG: -0.176
ATCGCCTG: -0.295
ATCGCGAG: -0.0262
AGCAAAAG: 0.0735
TGGCACAA: -0.0148
CTCGCCAA: -0.126
GTTTAGAA: 0.184
TCACGTGA: 0.0345
CGGTACCA: -0.157
CTGTAGCC: -0.232
GCCTGGTA: -0.164
GATGAGAC: 0.0448
CCCGTAGG: -0.337
CTTCTGGC: -0.136
CTTAAGCC: -0.0781
ATAAGAGG: 0.0814
ACTGTTTC: -0.0211
ACGCAGAT: -0.137
CCGGTATA: -0.0239

Block 4 — target: CCNA2, cyclin fold, Cln2 fusion (human); technique: yeast growth competition, sequencing; sample: yeast; notes: strong parent motif; reference: not given; reading: higher = stronger binding; quantity: normalised enrichment score
Parent: KIF20B docking peptide (human); KRAKRKLYTSEIS
R5A: 0.0263
R2A: 1.28
T9A: 1.23
L7A: 0.853
S13A: 1.32
I12A: 1.36

Block 5 — technique: RNA Bind-n-Seq; molecule type: RNA; sample: in vitro; tested at: not given; reference: input RNA pool; reading: higher = stronger binding; quantity: bound/input enrichment
Target: RING finger protein unkempt homolog, zinc fingers 1-6, GST-SBP tag (UNK, Homo sapiens, UniProt Q9C0B0, residues 30-357)
Notes: RNA with constant flanks, human and mouse sites, ends assumed
Construct (chain): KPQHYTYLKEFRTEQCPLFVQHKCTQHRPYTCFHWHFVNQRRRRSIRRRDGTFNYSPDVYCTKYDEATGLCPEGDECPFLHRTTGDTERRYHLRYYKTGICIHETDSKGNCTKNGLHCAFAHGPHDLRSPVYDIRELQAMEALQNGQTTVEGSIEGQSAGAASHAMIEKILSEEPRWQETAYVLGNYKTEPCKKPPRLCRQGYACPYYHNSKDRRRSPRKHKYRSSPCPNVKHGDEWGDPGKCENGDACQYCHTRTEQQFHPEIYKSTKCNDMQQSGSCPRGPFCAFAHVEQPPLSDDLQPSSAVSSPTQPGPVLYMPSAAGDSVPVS
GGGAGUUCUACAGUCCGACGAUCCCGUCUAUAUAUGUGUGAAUAAUGUAAGUAUUUUACAGCAUGUUGAUUUUUAAAUUAACGUAGUAAAUGCUGUAAAAUAGAUUUAUAUUCAGUUAACCGCUUUCAGUUGAUUUUUUGAAACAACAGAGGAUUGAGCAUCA: 0.427 ratio
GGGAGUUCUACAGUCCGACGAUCAAAAAGAUAGACCUGCAGAAAAAACAAACUCAAAGAAAUGUGUUCAGAUGUAAUGUAAUUGGAGUGAAAAACUGUGGGAAAAGUGGAGUUCUUCAGGCUCUUCUUGGAAGAAACUUAAUGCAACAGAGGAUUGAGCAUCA: 0.302 ratio
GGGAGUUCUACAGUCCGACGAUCUUUUUAUUAUACAUUUAUUUUUUGUCGUUAUAUACUGGUGUGUGAUCCAAGUUAUACAUGAAUAGAAAAAGAUGGUGUUAAAUUUGUGUGUAGGCUGGGAAUUCUUGCUGAAGGAAUUGGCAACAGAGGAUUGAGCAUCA: 0.973 ratio
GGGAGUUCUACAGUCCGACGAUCUUCUACGAUCCGGACACCAGCAUCAUCUACUUAUGUGGGAAGGGUGACAGCAGUAUCCGCUAUUUUGAGAUCACGGAUGAAUCCCCAUAUGUCCACUACCUCAACACAUUCAGCAGCAAGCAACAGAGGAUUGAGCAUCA: 0.0961 ratio
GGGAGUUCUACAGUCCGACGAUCAAUUCAUCCCUCGUGCACAUCCUGUUGUGUUUAAGUCACCAGAUAUUUUGUUCCCAUCAGUUUAGCCCAGAGAUAGACAGUAGAAUGCAAAUACCUCCCUCCCCUAAACUGACUGGACGGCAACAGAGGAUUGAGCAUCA: 0.485 ratio
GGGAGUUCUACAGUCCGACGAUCAAUCCCGAAGCUAUUACCCUUCCAGGAAAUGCUUGGAGCCAUAUGAACAUUCAGGAAGCUGAUUCCCGCGUAAUACAGAGGUAUCGACAGAUUUAACAGUGCCAAGAGCUGCCAAGAGACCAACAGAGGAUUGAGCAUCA: 0.184 ratio
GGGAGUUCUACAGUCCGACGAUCUGGAAUUCUAAUCUGAGUGGGCAUCUCCUGAGUGCAUCUGAUGACCAUACUGUCUGCCUGUGGGAUAUAAAUGCAGGACCAAAGGAAGGCAAAAUUGUGGAUGCUAAAGCAAUCUUUACUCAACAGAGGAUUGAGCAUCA: 0.111 ratio
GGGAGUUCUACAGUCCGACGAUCUUAAUUGAUUUUCCUUUGGGGUUCCAGAUAAUAUUUUCUACAGAUUUUGAAAAAUGUAAUAAUAUUAAUGCAGUAUUGCAACAGGGGUGCAAUUUAAGGCUAUGUGAUAGAGGGUUAUUUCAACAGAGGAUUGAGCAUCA: 0.759 ratio
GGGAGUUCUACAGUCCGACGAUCAAACAUUUUGAUGGUGAAGAUUACACAUGCAUAACAUUCCAACCAGAUCUGUCCAAAUUUAAGAUGGAAAAACUUGACAAGGAUAUUGUGGCCCUCAUGACUAGAAGGGCAUAUGAUUUGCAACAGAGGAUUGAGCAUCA: 0.19 ratio
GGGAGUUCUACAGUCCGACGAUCCUUGAUUUCCUACGAAUCAGUGACACAGAAGAGCUUCCAGAAUUUAAGAGUUUUGAGGAACUAGAACCUCCCAAACAUUCAAAAGUCAAACGGCAAAGCAGCACCCCUAGUGCUCCUGAACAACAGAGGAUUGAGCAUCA: 0.539 ratio
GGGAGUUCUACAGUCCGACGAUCGGACGAGAGCCUCUGACCUACUAUGACAUGAACCUCUCUGCCCAGGACCACCAGACAUUCUUUACUUGUGAUUCAGAUCAUCUUCGCCCUGCAGAUGCAAUAAUGCAAAAAGCUUGGAGACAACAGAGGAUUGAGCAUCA: 0.214 ratio

Block 6 — target: BATF3, bZIP domain (human); technique: DHFR protein complementation; sample: yeast; reference: wild-type JUN-FOS pair; reading: higher = stronger binding; quantity: binding fitness
Notes: single substitutions, most at no-binding floor
Parent: JUN, bZIP domain (human); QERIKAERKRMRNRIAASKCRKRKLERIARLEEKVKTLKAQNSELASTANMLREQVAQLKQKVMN; partner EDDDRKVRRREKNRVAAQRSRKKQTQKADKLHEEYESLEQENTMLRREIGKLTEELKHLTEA
L38P: -1.12 natural log
K34G: 0.284 natural log
V56P: -0.959 natural log
I28F: 0.144 natural log
S43A: 0.244 natural log
L45N: -0.447 natural log
K34L: 0.274 natural log
K34Y: 0.0704 natural log
A29I: 0.196 natural log
T48A: 0.166 natural log
L38T: 0.089 natural log
E54H: 0.161 natural log
